Published values collected from several papers.
Every numbered part comes from another study and shows a few of its results, in no order. Changes are numbered by the printed parent chain.

Block 1
Target: ABI1, truncated, D143A, DHFR fusion (Arabidopsis thaliana)
Technique: DHFR PCA, deep sequencing
Sample: yeast
Notes: methotrexate growth selection, single substitutions
With: (+)-ABA 4.8 µM
Baseline: wild-type fitted maximum
Reading: higher = stronger binding
Starting sequence: PYL1, truncated, DHFR fusion (Arabidopsis thaliana); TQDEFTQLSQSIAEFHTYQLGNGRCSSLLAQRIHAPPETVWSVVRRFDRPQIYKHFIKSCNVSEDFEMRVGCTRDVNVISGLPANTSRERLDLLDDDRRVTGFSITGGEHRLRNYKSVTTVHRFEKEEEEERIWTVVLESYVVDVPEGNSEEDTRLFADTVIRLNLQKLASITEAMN; partner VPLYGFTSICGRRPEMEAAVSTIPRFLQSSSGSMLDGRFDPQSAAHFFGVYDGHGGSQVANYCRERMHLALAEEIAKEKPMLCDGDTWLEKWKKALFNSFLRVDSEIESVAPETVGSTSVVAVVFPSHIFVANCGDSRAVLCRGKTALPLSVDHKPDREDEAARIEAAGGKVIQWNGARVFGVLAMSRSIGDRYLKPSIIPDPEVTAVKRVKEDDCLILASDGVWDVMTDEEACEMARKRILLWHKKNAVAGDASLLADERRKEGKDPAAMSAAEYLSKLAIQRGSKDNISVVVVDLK
Under “relative binding score”, `P146H` is recorded as -1.46%.
`V43E`: “relative binding score” -4.9%.
`N114C`: “relative binding score” 6.41%.
`P83W` — result for “relative binding score”: -0.0117%.
For `A158D`, “relative binding score” read -5.9%.
Under “relative binding score”, `L164Q` is recorded as 70.4%.
For `E67R`, “relative binding score” read 61.4%.
`T86H` — result for “relative binding score”: 68%.
For `K116S`, “relative binding score” read 72.4%.
`R24K`: “relative binding score” 79.1%.
`R90E`: “relative binding score” 25%.
`E67C` — result for “relative binding score”: 64.3%.
`D65M` — result for “relative binding score”: 45.2%.
For `L28W`, “relative binding score” read 17.8%.
Under “relative binding score”, `N149T` is recorded as 30.4%.
`N22A`: “relative binding score” 78.3%.

Block 2
Target: TAR DNA-binding protein 43, full length, His tag (TARDBP, Homo sapiens, UniProt Q13148, residues 1-414)
Technique: RNA Bind-n-Seq
Form: RNA
Sample: in vitro
Concentration: 20 nM
Notes: 6-mer, flanks averaged, single round
With: 150 mM KCl
Baseline: input library
Reading: higher = stronger binding
For `CCUUAA`, “6-mer enrichment (R)” read 0.597.
`GCAAUA`: “6-mer enrichment (R)” 0.71.
Under “6-mer enrichment (R)”, `GUCCCG` is recorded as 0.797.
`UAGGGG`: “6-mer enrichment (R)” 3.83.
For `AAGUGA`, “6-mer enrichment (R)” read 0.843.
`AUCUGU`: “6-mer enrichment (R)” 0.605.
`CCUAAU`: “6-mer enrichment (R)” 0.611.
`GGUUCA` — result for “6-mer enrichment (R)”: 0.854.
Under “6-mer enrichment (R)”, `GUGCCC` is recorded as 0.788.
`CCAUCU` — result for “6-mer enrichment (R)”: 0.577.
For `ACGAUG`, “6-mer enrichment (R)” read 0.839.
For `GGGGAC`, “6-mer enrichment (R)” read 4.12.
`UACAAC`: “6-mer enrichment (R)” 0.618.

Block 3
Target: Sal-like protein 4, full length isoform B (SALL4, Homo sapiens, UniProt Q9UJQ4-2, residues 1-616)
Technique: universal PBM
Form: double-stranded DNA, one strand shown
Sample: in vitro
Concentration: not given
Notes: 8-mer, flanks averaged, mean of replicates
Reading: higher = stronger binding
For `CCTAGTGC`, the E-score was -0.119.
With `CTTCCATC` the E-score was -0.0534.
For `TAGATGAA`, the E-score was 0.216.
`CAAGGACA` has an E-score of -0.0207.
With `TCGCCGAA` the E-score was -0.0643.
With `CTACGCCA` the E-score was -0.122.
`GCAAACCA` has an E-score of 0.0503.
`GCATGACC` gave an E-score of -0.224.
`ACGTTCGC` gave an E-score of -0.17.
The E-score of `AATTAGCA` is reported as 0.17.
For `CCCTCTTA`, the E-score was 0.00816.
The E-score of `GCGAAAGA` is reported as -0.0488.
`GCGTCTGA` gave an E-score of -0.18.
`CCCGACCC` gave an E-score of -0.387.
The E-score of `AGCCGCAC` is reported as -0.27.
For `AAAGGCTT`, the E-score was -0.0644.
With `AGTATACT` the E-score was 0.139.
`ACCGGATG` has an E-score of -0.154.
`ACACAAAT` has an E-score of 0.257.
`ACAGATCG` has an E-score of -0.106.
The E-score of `CCCTACGC` is reported as -0.2.
The E-score of `CCGCACGC` is reported as -0.214.
The E-score of `AGCTCTCA` is reported as -0.183.
The E-score of `ACGCGGTC` is reported as -0.173.

Block 4
Target: RNA binding protein fox-1 homolog 2, RRM domain, GST-SBP tag (RBFOX2, Homo sapiens, UniProt O43251-10, residues 100-194)
Technique: RNA Bind-n-Seq
Form: RNA
Sample: in vitro
Concentration: 365 nM
Notes: natural RNA segment, single round, ends assumed
Baseline: no-protein control
Reading: higher = stronger binding
Constant ends, left off below: GGGAGUUCUACAGUCCGACGAUC … UGGAAUUCUCGGGUGCCAA
Residues (chain): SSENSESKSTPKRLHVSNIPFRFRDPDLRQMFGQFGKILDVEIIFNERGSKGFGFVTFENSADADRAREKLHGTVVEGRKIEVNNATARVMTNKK
Under “RBNS enrichment (R)”, `UUAAACCUCCCUUCCUAAAAUCUGGGGGGUCGGGGGGAAAGAAAAAAAAAGCCUUAGUGGCCUGGUUGUUCAAAGGAUAAGAAUAGCUUUAUCCUGCACUCAGUACCCGA` is recorded as 0.824.
For `GGAAUCUUUUAUCAUUAAACACCUAGUACGAAGCAUUUGCAGGAACCUACUGUGCAGUAUCAUAGAAGCAAGCAGAUACCAAGCAAAAAACUGAUGAUUGAAGAGUAAAU`, “RBNS enrichment (R)” read 0.43.
For `AGAGGCACCGGCGAUGAAGUGGCACAGCCCCAGUCGGAAUCCAGCGGCUUCUGAAAGUGCCUUGGUGUGAGAAGGAGGAAGGGGCCGCUUGGAGAGCUGGGCUCUCGCAU`, “RBNS enrichment (R)” read 1.13.
Under “RBNS enrichment (R)”, `CUUAGUCAUGGUGUUGCGUAAAUCAUAUUUUAGCUGCACGGCAUUACCCCACACAGGGUGGCAGAACUUGAAGGGUUACUGACGUGUAAAUGCUGGUAUUUGAUUUCCUG` is recorded as 0.464.
For `UAGGCCCGAGCUGCAUUGCCGGCCUUCCUCGGGCCAACUGGCAGCCCAGGAGUGGGGAGGCUUUGGCCAGGGAUGCUGCCACUUGUGCGUGAGUCCGCGGCUGGCCCUUG`, “RBNS enrichment (R)” read 0.336.
`AAGGUCUAAUCAUAAGACAAUUGUUUUUUUGUGCAUAGUUUUCAUCUAAAAUUAAGUUUACCAAAGGCAAAUAACUGCUUACUAGGAACUUCCUUUAGCAAAAAUUACUA`: “RBNS enrichment (R)” 0.334.
For `ACACAAUAAAACUCUGAAAUGAAGAUGCUUUGCUGUGCAUUGUUUGAAAGAUUACAAACAGCUGUUUCUCAAACCCUCUCAAUCCAUCAUAAUAAAAUACAUAAUAUUGU`, “RBNS enrichment (R)” read 0.365.
Under “RBNS enrichment (R)”, `UCUCACAGAGUACACUAGACAUACAUAGAGACACCUUGUAGUAUUUUGGAAGCAAAAGAUUAUUUUCUCUUAACAAGACUUUUUGUACUGAAAACAAUUUUUUUGAAUCU` is recorded as 0.54.
`GGGCCAGCCUCUCUGUGCUGCGUGGCUGUCGGUCCCCCUCAGCUGGGAAAGAGAGCACUGGCUCACUGUGCAGUUUUCAUGUUUCCUCAGCAAGCCAUCAAGCCUCACAU` — result for “RBNS enrichment (R)”: 0.465.
`CUGGGUGGCUCCUCGCCUUGGGGGCUCCUGGCCCUGAGGCUGGCGGUGGCCGCAUGCCGGCGCGUGUCUGUUUCUGUGCGGCGGCUCAGGGUGGCGCGGCUGCUGCUCAC` — result for “RBNS enrichment (R)”: 1.46.
`GCUCCACCUGUUCAGGAGCUGAAGCCCAUGCUUUCCCACCAGCAUGUCACUCCCAGACCACCUCCCUGCCCUGUCCUCCAGCUUCCCCUCGCUGUCCUGCUGUGUGAAUU`: “RBNS enrichment (R)” 1.01.
Under “RBNS enrichment (R)”, `ACUCAAUGUCUUAGGUCAGGAGUUGUGUCUAGGCUGGAAGAGCCAAAGAAUAUUCCAUUUUCCUUUCCUUGUGGUUGAAAACCACAGUCAGUGGAGAGAUGUUUGGAAAC` is recorded as 0.364.

Block 5
Target: Ras GTPase-activating protein-binding protein 1, C-terminal RGG region (G3BP1, Homo sapiens, UniProt Q13283)
Sequence of UniProt Q13283 (whole entry, looked up): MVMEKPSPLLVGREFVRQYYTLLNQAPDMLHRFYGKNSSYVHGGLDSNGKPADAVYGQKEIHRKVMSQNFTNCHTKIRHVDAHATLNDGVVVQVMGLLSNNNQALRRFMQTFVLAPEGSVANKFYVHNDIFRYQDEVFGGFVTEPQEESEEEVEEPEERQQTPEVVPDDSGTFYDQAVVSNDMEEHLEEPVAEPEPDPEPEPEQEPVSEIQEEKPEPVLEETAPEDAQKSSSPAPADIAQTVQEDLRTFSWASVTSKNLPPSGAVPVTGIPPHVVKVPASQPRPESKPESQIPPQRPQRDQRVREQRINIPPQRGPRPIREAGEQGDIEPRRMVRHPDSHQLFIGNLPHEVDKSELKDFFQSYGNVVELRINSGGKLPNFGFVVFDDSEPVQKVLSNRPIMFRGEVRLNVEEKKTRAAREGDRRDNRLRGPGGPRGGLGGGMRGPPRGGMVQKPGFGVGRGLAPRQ
Technique: RNA Bind-n-Seq
Form: RNA
Sample: in vitro
Concentration: 1 µM
Notes: whole 134-nt RNA, ends assumed
With: 150 mM KCl
Baseline: input library
Reading: higher = stronger binding
Constant ends, left off below: GGGAGUUCUACAGUCCGACGAUC … UGGAAUUCUCGGGUGUCAAGG
The log2 enrichment of `AAGUCCUGUGCUACACAUCGUAUGUACCGAAUCGGCCCCGGGCCCCGGGGCCCCGGGAAAGUAUUAUGUUACGCCGUUCGGAUCUGCACU` is reported as -2.3.
For `AGUCCUGUGCUACACAUCGUAUGUACCGAAUCGGGAAAGGGAAAAAAAGGGUUUGGGAAAGUAUUAUGUUACGCCGUUCGGAUCUGCACU`, the log2 enrichment was 0.112.
`UCAAGUCCUGUGCUACACAUCGUAUGUACCGAAUCGGGAAAGGGUGGGAAAGGGAAAGUAUUAUGUUACGCCGUUCGGAUCUGCACUUCC` has a log2 enrichment of 1.68.
The log2 enrichment of `AGUCCUGUGCUACACAUCGUAUGUACCGAAUCGGGCCCCCGGGCCCCCGGGCCCCCGGAAAGUAUUAUGUUACGCCGUUCGGAUCUGCAC` is reported as -2.
The log2 enrichment of `AAGUCCUGUGCUACACAUCGUAUGUACCGAAUCGGCCCCGGGCCCCGGGCCCCGGGGAAAGUAUUAUGUUACGCCGUUCGGAUCUGCACU` is reported as -2.12.
`CAAGUCCUGUGCUACACAUCGUAUGUACCGAAUCGGGUGGGUUUUUGGGUUUGGGAAAGUAUUAUGUUACGCCGUUCGGAUCUGCACUUC` has a log2 enrichment of 0.528.
The log2 enrichment of `AGUCCUGUGCUACACAUCGUAUGUACCGAAUCGGUUUGGAAAAAAAGGAAAAAAAGGAAAGUAUUAUGUUACGCCGUUCGGAUCUGCACU` is reported as -1.81.
For `UCAAGUCCUGUGCUACACAUCGUAUGUACCGAAUCGGAAAAAAAGGAGGUUUGGAAAGUAUUAUGUUACGCCGUUCGGAUCUGCACUUCC`, the log2 enrichment was -1.51.
For `UAACUUUAGAGGAGGAUCUGAUGGAUAUGGCAGUGGACGUGGAUUUGGGGAUGGCUAUAAUGGGUAUGGAGGAGGACCUGGAGGUGGUAA`, the log2 enrichment was -0.556.

Block 6
Target: Histone acetyltransferase KAT6A, winged helix 2, GST fusion (KAT6A, Homo sapiens, UniProt Q92794, residues 85-181)
Technique: protein binding microarray
Form: double-stranded DNA, one strand shown
Sample: in vitro
Concentration: not given
Notes: 8-mer, flanks averaged, mean of 2 arrays, mostly near background
Baseline: not given
Reading: higher = stronger binding
Construct (chain): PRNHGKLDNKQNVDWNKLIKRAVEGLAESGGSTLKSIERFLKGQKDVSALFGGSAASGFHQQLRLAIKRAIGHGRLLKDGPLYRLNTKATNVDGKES
The E-score of `GCGGTCCA` is reported as 0.158.
With `GACCACTA` the E-score was -0.154.
The E-score of `GGACCAAA` is reported as 0.124.
With `GGCGTTGA` the E-score was -0.0781.
For `AACGAAAC`, the E-score was 0.0103.
For `AGTGGCAA`, the E-score was 0.0732.
`CCTCGACC` has an E-score of -0.0661.
The E-score of `ACCATACC` is reported as -0.124.
`CAAACCTC` has an E-score of -0.171.
With `GAAAGATC` the E-score was -0.104.
`CAGGACCC` has an E-score of 0.0174.
The E-score of `GTGGTCCA` is reported as 0.0548.
For `CAATGGGG`, the E-score was -0.191.
With `GGAGAGCA` the E-score was -0.041.
With `CTCCATTC` the E-score was -0.045.
`GGCCTGAA` has an E-score of 0.035.
